Published values pooled from the literature.
Protocols differ between the studies behind these lines.
Target: Death-associated protein kinase 1 (DAPK1, Homo sapiens, UniProt P53355)

`CNC(=O)C1CCN(c2cc(C)c(F)cc2NC(=O)c2ccc(-c3cc(O)ccc3C)c(C)c2)CC1` has a remaining binding of 72% (binding, competition with immobilised ligand; 1 µM).
The inhibition of `CCn1cc(C(=O)O)c(=O)c2c(N)c(F)c(NC3CCCCC3)cc21` is reported as -31% (kinase activity; 0.1 µM, added: ATP at Km).
`C=CC(=O)Nc1cccc(-c2cnc3[nH]cc(C(=O)NC(C)(C)C)c3n2)c1` gave an inhibition of 4% (enzyme activity, inhibitor; 0.1 µM).
With `CN1CC[C@@H](COc2cnc(C#N)cc2-c2ccn3nc(NC(=O)C4CC4)cc3c2)C1` the inhibition was 5% (enzyme activity, inhibitor; 1 µM).
With `C[C@H]1CN(C(=O)c2cn(-c3ccnc(N)n3)c3cc(C#CC4(O)CCCCC4)ccc23)CCN1` the inhibition was 4% (enzyme activity, inhibitor; 1 µM).
The remaining binding of `CNC1C[S+]2CC[S+]3CC[S+](C1)[Ru-4]321([N]=C=S)[n]2c3ccc(OC)cc3c3c4c(c5cc(F)c[n+]1c5c32)C(=O)NC4=O` (stereo not shown) is reported as 3.1% (KinomeScan; 0.1 µM; relative to: untreated).
`CC(C)=CC1OC(C)(C)C2C=C3C(=O)C(Cl)=CC(O)C3C3C(O)C4OC4C(=O)C132` (stereo not shown) gave a remaining binding of 88% (cell-free assay, competition with immobilised ligand; 10 µM).
`COc1c(OCCCN2CCOCC2)ccc2c1N=C(NC(=O)c1cnc(N)nc1)N1CCN=C21` has a remaining activity of 77% (kinase activity, inhibitor; 1 µM; relative to: untreated control).
`Nc1ncc2c(n1)-c1c([nH]c3ccc(C4=CCOCC4)cc13)CCC2` gave a remaining binding of 95% (binding, competition with immobilised ligand; 1 µM).
For `NC(=O)C[C@H]1CCc2sc3ncnc(O[C@H]4CC[C@H](N5CCOCC5)CC4)c3c21`, the inhibition was -5% (enzyme activity, inhibitor; 10 µM).
The inhibition of `Cc1cccc(O[C@H]2CCC[C@@H](C(C)CNCc3ccncc3)C2)c1` (relative stereo) is reported as 5% (enzyme activity, inhibitor; 1 µM).
For `COc1cc(Nc2nc(C)cc(-c3cnn4nc(OC)ccc34)n2)cc(C(F)(F)F)c1`, the remaining activity was 88% (inhibitor; 1 µM; relative to: control).
With `C=CC(=O)N1Cc2nc(-c3cc(-c4cc(Cl)cnc4Cl)c(F)cc3F)n(-c3ccncn3)c2C1` the inhibition was 4.2% (cell-free assay, inhibitor; 1 µM).
The inhibition of `CN1CCN(Cc2ccc(-c3ccc(CO[C@H]4CCC[C@@H]4NC(=O)c4cc(-c5cnn(C)c5)cnc4N)cc3)cc2)CC1` is reported as -9% (enzyme activity, inhibitor; 0.1 µM).
`CCN1CCN(Cc2ccc(C(=O)Nc3ccc(C)c(NCc4cnc5[nH]ccc5c4OC)c3)cc2C(F)(F)F)CC1` gave a remaining binding of 82% (binding, competition with immobilised ligand; 1 µM).
For `COc1cc(-n2cc3cc(F)cc(C(N)=O)c3n2)cc(Cl)c1C1CC(O)(CCO)Cc2ccccc21` (stereo not shown), the inhibition was 2.09% (enzyme activity, inhibitor; 10 µM).

Some of these lines once more:
For `COc1cc(-n2cc3cc(F)cc(C(N)=O)c3n2)cc(Cl)c1C1CC(O)(CCO)Cc2ccccc21` (stereo not shown), the inhibition was 2.09% (enzyme activity, inhibitor; 10 µM).
The inhibition of `Cc1cccc(O[C@H]2CCC[C@@H](C(C)CNCc3ccncc3)C2)c1` (relative stereo) is reported as 5% (enzyme activity, inhibitor; 1 µM).
With `C[C@H]1CN(C(=O)c2cn(-c3ccnc(N)n3)c3cc(C#CC4(O)CCCCC4)ccc23)CCN1` the inhibition was 4% (enzyme activity, inhibitor; 1 µM).
